Published values of several laboratories.
Parts stem from different laboratories: compare values within a part only. Changes are numbered by the printed parent chain.

Set 1
Target: Interferon regulatory factor 3, full length, phosphomimetic (IRF3, Homo sapiens, UniProt Q14653, residues 1-427, S386D/S396D/S398D/S402D/T404D/S405D)
Sequence of UniProt Q14653 (whole entry, unmodified, looked up): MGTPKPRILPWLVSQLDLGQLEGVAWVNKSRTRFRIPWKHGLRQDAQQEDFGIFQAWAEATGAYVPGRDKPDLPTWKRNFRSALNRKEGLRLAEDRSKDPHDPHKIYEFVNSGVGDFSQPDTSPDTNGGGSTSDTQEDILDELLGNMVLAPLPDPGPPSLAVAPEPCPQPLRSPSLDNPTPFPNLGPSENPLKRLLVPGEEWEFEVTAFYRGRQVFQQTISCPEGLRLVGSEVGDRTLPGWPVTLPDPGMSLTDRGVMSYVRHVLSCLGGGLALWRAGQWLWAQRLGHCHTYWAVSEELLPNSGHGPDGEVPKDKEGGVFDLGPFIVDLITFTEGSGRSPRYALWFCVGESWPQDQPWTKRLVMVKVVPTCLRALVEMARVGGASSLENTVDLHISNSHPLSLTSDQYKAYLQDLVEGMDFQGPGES
Method: protein-binding microarray
Form: double-stranded DNA, one strand shown
Matrix: in vitro
Tested at: 2540 nM top
Notes: 60-bp whole probe
With: salmon DNA 0.4 mg/ml
Relative to: random background probes
Reading: higher = stronger binding
Shared flanks, not repeated: GCCTAGCAC … GTCTTGATTCGCTTGACGCTGCTG
Under “fitted relative affinity”, `AACGGTTTCCTTCTCCTGACGTGCTAG` is recorded as 9.91 z-score.
`GACGATTTCGGATTTCGAGACGTGCTA`: “fitted relative affinity” 4.08 z-score.
`TTAGGACTGCTACTGTTTTAGTGCTAG` — result for “fitted relative affinity”: -0.244 z-score.
Under “fitted relative affinity”, `GTAGAACTGAGACTGGATTAGTGCTAG` is recorded as -0.318 z-score.
`TCAAAGATTGCCGTTTCCACTGTGCTA`: “fitted relative affinity” 2.1 z-score.
`TCACATGTTGCTCTCCGACTGTGCTAG` — result for “fitted relative affinity”: 0.13 z-score.
`GACGACCTCAGACTGGAGACGTGCTAG`: “fitted relative affinity” -0.505 z-score.
For `TTAGGTTTCGTTCTCGGTTAGTGCTAG`, “fitted relative affinity” read 8.25 z-score.
For `TTAGGTTTCAGGACTGGGTTAGTGCTA`, “fitted relative affinity” read 2.39 z-score.
Under “fitted relative affinity”, `GTAAATCTTTTTCCCTATTAGTGCTAG` is recorded as 2.44 z-score.
`TTAGCACTGCTTTTCCTTTAGTGCTAG`: “fitted relative affinity” 0.575 z-score.
Under “fitted relative affinity”, `CTAGATTTCAGTTCCGATTAGTGCTAG` is recorded as 3.75 z-score.
Under “fitted relative affinity”, `TCATTTCCAATTCTCTTACTGTGCTAG` is recorded as 4.22 z-score.
For `TTAGGTCACGGTCTCGGTTAGTGCTAG`, “fitted relative affinity” read 0.188 z-score.
For `TCAAATCTCTCATGTTACACTGTGCTA`, “fitted relative affinity” read 0.269 z-score.
`TCAGGCTTTCCTTTATGACTGTGCTAG` — result for “fitted relative affinity”: 2.91 z-score.
`TTAGGTGTCGGGACTGGGTTAGTGCTA`: “fitted relative affinity” 0.536 z-score.
Under “fitted relative affinity”, `TTGGAACTGGGGTTTCGATTAGTGCTA` is recorded as 1.06 z-score.
Under “fitted relative affinity”, `TTAGGTCTCCTTCTCCTTTTGTGCTAG` is recorded as 4.37 z-score.
`TCATGTTTCTAATATTCTACTGTGCTA` — result for “fitted relative affinity”: 1.11 z-score.
`CACTCTTTCCTCACCATACTGTGCTAG` — result for “fitted relative affinity”: 2.27 z-score.
`TTAGGTTGCCTTTCCCTTTAGTGCTAG` — result for “fitted relative affinity”: 6.59 z-score.
`GACGATAGCGGGTTTCGAGACGTGCTA`: “fitted relative affinity” 0.47 z-score.

Set 2
Target: RNA binding protein fox-1 homolog 2, RRM domain, GST-SBP tag (RBFOX2, Homo sapiens, UniProt O43251-10, residues 100-194)
Method: RNA Bind-n-Seq
Form: RNA
Matrix: in vitro
Tested at: 365 nM
Notes: natural RNA segment, single round, ends assumed
Relative to: no-protein control
Reading: higher = stronger binding
Target sequence (chain): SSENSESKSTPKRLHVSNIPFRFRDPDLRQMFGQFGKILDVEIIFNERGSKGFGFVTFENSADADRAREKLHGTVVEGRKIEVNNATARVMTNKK
For `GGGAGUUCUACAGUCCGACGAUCACAUGAUGUUCAUUCUGUAAAUAUACAUGCAGACAGGUCAUGUACUAAUCCUAGUCCUUUUCCUGAGGUAGAUUUUAAACAGUAUUUUUAAAGUCCAAGACAUAGGUUUUUGGAAUUCUCGGGUGCCAA`, “RBNS enrichment (R)” read 0.39.
Under “RBNS enrichment (R)”, `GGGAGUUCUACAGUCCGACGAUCUUAUAAGAAAACCAGCAUAAUACCUGAUAUAUUAAAAUGUAGUGCCUGUGAAACCUGUAUUAUACUGCUCUUCUGAAGUAAGACUUUUCUACACCGGUAGCCUUCGCUGUUGGAAUUCUCGGGUGCCAA` is recorded as 8.17.
`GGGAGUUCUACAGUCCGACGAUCGGUUCUGCAACCACCAGGGAGGCAGCCCGAGGUGAUGCUGCUCACCGCGCCCUACAGUACCUCAGGAUCAUGGCGGGUAGCAAGUAGCAUCCCACUGCAGUGAUGGAUAUUGGAAUUCUCGGGUGCCAA`: “RBNS enrichment (R)” 0.507.
For `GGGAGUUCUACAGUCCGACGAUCACACACCAGCUCCUGUUGGGAUGGAUGGCCCGGAUUUUAUGGCAUCUGGAACAUGGGCACAGAGAGGGGCCUGUGGGAGGGGCUGGGAAAAUAAAGUCCAAGGUCGAGACUGGAAUUCUCGGGUGCCAA`, “RBNS enrichment (R)” read 0.848.
For `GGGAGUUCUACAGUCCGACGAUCGUUCCUGGCUGUCUCUGUUCCCUUGCUGUGGGGCUGUGUCCCUCCUUUGGGAGCAUGUGUGGCUAGGGUGUGGCAGCCUUUGUCUGACAUGCAGUAUAGUAGGUCCCUGAUGGAAUUCUCGGGUGCCAA`, “RBNS enrichment (R)” read 0.576.
`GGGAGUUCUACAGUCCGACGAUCAGAAUUAUUUUCUGAGAGAAUCUUAAACUUAGAAUAUUCAGAUGCAGUAGAUACUGGCGUGUGGAGAUUCACAGACGACCUCAGCACCCAUCCCACCAGGUCCCUGGACUUGGAAUUCUCGGGUGCCAA`: “RBNS enrichment (R)” 0.224.
For `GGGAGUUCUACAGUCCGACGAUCCAGUGCUGGACUGAUUCUCCCAGGCUGCAGUAGGGAUAGGGCAGGGAUAGGGACAGCCCAGGUCACAGCCAGGGUCAACAGAGGUACCACAGAGCUACCUUUUGGGAUGAUGGAAUUCUCGGGUGCCAA`, “RBNS enrichment (R)” read 0.77.
Under “RBNS enrichment (R)”, `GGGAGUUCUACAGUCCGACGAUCAAGGACUGACUCAAGCUGUGUCUUUCAGACCAAGGAACAUCAGAGAAGCUGUGGGGCUGCCUGCCAGGCAGGAUCAUGGCUGCCAUCAAGCCUUUUCUGGAUCCAGCCAUUGGAAUUCUCGGGUGCCAA` is recorded as 0.251.
Under “RBNS enrichment (R)”, `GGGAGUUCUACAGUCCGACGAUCUUCUCUAAGAGAACAAUGUGCUAUGUGAAGAGUAAGUCAACCUGCCUGACAUUUGGAGUGUUCCCCUUCCACUGAGGGCAGUCGAUAGAGCUGUAUUAAGCCACUUAAAAUGGAAUUCUCGGGUGCCAA` is recorded as 0.401.
For `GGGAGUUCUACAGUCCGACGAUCUCAUAAUUUUGUAAUAAUCUUUAUUUUCCCUUAGCAAACCAAGUAAAAAUAAACUAGUAAAAGAUUAUCAUGUUUUAUGACCAUCAACGGAAUCAUUUUAAUGUGUUCCUUGGAAUUCUCGGGUGCCAA`, “RBNS enrichment (R)” read 0.344.
`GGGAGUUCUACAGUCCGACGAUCGUCUCACAGUGGGAUUGUGGUUGUCUGAGGACACUUUGGGGGGUCGCUGUCCAAGAAGUGGCUCCCCAAAGUAUAAGUGCGGGUGAGGUUUACUGAUACCCCACAGUGGAUGGAAUUCUCGGGUGCCAA`: “RBNS enrichment (R)” 0.468.
For `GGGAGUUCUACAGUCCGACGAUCUUAACUGUCGUGUGGCUCGUUGCUAAAUCAUGACAAUGGCUGCCUAUCUGCUGCUUCUUAGGUUGCUGUUGUACAUGGAACCAGGACUAGAGAUUUUUUCAGAUUUAUAGUGGAAUUCUCGGGUGCCAA`, “RBNS enrichment (R)” read 0.516.

Set 3
Target: ABI1, truncated, D143A, DHFR fusion (Arabidopsis thaliana)
Method: DHFR PCA, deep sequencing
Matrix: yeast
Notes: methotrexate growth selection, single substitutions
With: (+)-ABA 0.39 µM
Relative to: wild-type fitted maximum
Reading: higher = stronger binding
Starting sequence: PYL1, truncated, DHFR fusion (Arabidopsis thaliana); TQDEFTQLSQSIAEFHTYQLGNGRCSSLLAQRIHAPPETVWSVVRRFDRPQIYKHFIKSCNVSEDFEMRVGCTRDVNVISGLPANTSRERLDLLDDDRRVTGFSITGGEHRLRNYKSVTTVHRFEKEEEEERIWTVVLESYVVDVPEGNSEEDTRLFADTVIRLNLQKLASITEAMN; partner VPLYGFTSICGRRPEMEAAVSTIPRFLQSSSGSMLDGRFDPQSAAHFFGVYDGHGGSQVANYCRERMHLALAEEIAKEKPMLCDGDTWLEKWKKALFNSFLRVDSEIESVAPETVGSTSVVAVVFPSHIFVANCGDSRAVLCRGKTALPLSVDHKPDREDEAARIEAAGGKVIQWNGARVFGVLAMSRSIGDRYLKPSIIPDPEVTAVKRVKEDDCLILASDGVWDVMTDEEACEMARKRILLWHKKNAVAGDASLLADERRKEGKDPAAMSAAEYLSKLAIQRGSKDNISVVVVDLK
`L28H`: “relative binding score” -10.6%.
For `E125R`, “relative binding score” read 45%.
`A175E` — result for “relative binding score”: 36.3%.
`H110S`: “relative binding score” 37.2%.
`N61D`: “relative binding score” 50.1%.
`R88C`: “relative binding score” 31.9%.
`T101E` — result for “relative binding score”: 4.6%.
Under “relative binding score”, `K116S` is recorded as 38.5%.
`V44K`: “relative binding score” -10.7%.
For `D48W`, “relative binding score” read -10.2%.
`Y141S`: “relative binding score” -4.77%.
Under “relative binding score”, `E127G` is recorded as 48%.
Under “relative binding score”, `N22A` is recorded as 62.6%.
For `T120S`, “relative binding score” read 75.9%.
`N77L` — result for “relative binding score”: 39.4%.
For `I172T`, “relative binding score” read 9.6%.

Set 4
Target: Sal-like protein 4, full length isoform B (SALL4, Homo sapiens, UniProt Q9UJQ4-2, residues 1-616)
Method: universal PBM
Form: double-stranded DNA, one strand shown
Matrix: in vitro
Tested at: not given
Notes: 8-mer, flanks averaged, mean of replicates
Reading: higher = stronger binding
For `GTAATTGA`, the E-score was 0.174.
The E-score of `AGTATTGA` is reported as 0.233.
`AACTTCGG` has an E-score of -0.00348.
`ACCACTGA` gave an E-score of -0.0939.
With `GCGTCTGA` the E-score was -0.18.
The E-score of `AAGGGCCC` is reported as -0.233.
`AAGGAGAG` gave an E-score of -0.0921.
`AATTTGCA` has an E-score of 0.139.
With `AATTAGCA` the E-score was 0.17.
`ACCACCGG` gave an E-score of -0.261.
`GCTCGTCC` has an E-score of -0.212.
`GGTAAGAA` has an E-score of -0.0993.
The E-score of `AATGTCCA` is reported as 0.083.
With `AGCGTTTC` the E-score was -0.119.
With `ATTCTGGG` the E-score was -0.0233.
For `CGTTACCC`, the E-score was -0.172.
`TCGTTTCA` has an E-score of 0.0917.
With `ACTGTCTA` the E-score was 0.00903.
`AAAACGGC` has an E-score of -0.0382.
For `GTCGTAAC`, the E-score was 0.00201.

A few entries again (set 4):
For `GTAATTGA`, the E-score was 0.174.
The E-score of `AATGTCCA` is reported as 0.083.
With `GCGTCTGA` the E-score was -0.18.
`AATTTGCA` has an E-score of 0.139.
The E-score of `AGTATTGA` is reported as 0.233.
With `AGCGTTTC` the E-score was -0.119.
`AACTTCGG` has an E-score of -0.00348.
`TCGTTTCA` has an E-score of 0.0917.
With `ATTCTGGG` the E-score was -0.0233.
